Assay results of several laboratories.
Compare with care: the assays were run in different laboratories. Values joined by “and” are separate records of one study, mostly repeats; a detail may differ. Numbers after ± are the reported error.

SMILES | assay | system | conditions | scale | measurement | result
CCCCN1C(=O)c2cccc3c(NCCCCCCCCN4CCOCC4)ccc(c23)C1=O |  | DMF |  |  | Stokes shift | 88 nm
CC(C)Cc1ccc(C(C)C(=O)NC(CCCCNC(=O)CCOCCOCCOCCOCCOCCOCCNC(=O)CN2CCN(CC(=O)[O-])CCN(CC(=O)[O-])CCN(CC(=O)[O-])CC2)C(=O)Nc2cccc3c(C(=O)NCC(=O)N4CC(F)(F)C[C@H]4C#N)ccnc23)cc1.[68Ga+3] (stereo partly drawn) |  | PBS | 120 min, 37 °C, 68Ga-labelled |  | radiochemical stability | 99.5 ± 1%
CCC1(CC)CC(=O)N(C2c3cc(C(=O)NC4c5ccccc5CC4O)ccc3OC2(C)COC)C(=N)N1 (stereo not drawn) |  | male beagle dog, plasma | intravenous |  | Vd | 4.1 L/kg
CCCCN1C(=O)c2cccc3c(NCCCCCCCCCCN4CCOCC4)ccc(c23)C1=O |  | 1,4-dioxane |  |  | fluorescence quantum yield | 1.13
COc1cccc(OC)c1-c1cc(C(=O)NC2(C(=O)O)C3CC4CC(C3)CC2C4)nn1-c1ccc(C(=O)NCCNC(=O)[C@H](CCCCNC(=O)[C@H](CC(C)C)NC(=O)C2OC2C(=O)O)NC(=O)CN2CCN(CC(=O)[O-])CCN(CC(=O)[O-])CCN(CC(=O)[O-])CC2)cc1C(C)C.[177Lu+3] (mixture of isomers) |  | mouse HT-29 xenograft | 4 h, biodistribution | baseline: tumour over stomach | tumour-to-stomach ratio | 27.7
CCCCN1C(=O)c2cccc3c(NCCCCN4CCOCC4)ccc(c23)C1=O |  | dioxane |  |  | Stokes shift | 79 nm
CCCCCCCC(=O)OC[C@H](NC(=O)[C@H](CO)NC(=O)CN)C(=O)N[C@@H](Cc1ccccc1)C(=O)N[C@@H](CC(C)C)C(=O)N[C@@H](CO)C(=O)N1CCC[C@H]1C(=O)N[C@@H](CCC(=O)O)C(=O)N[C@@H](Cc1cnc[nH]1)C(=O)N[C@@H](CCC(N)=O)C(=O)N[C@@H](CCCNC(=N)N)C(=O)N[C@H](C(=O)N[C@@H](CCC(N)=O)C(=O)N[C@@H](CCC(N)=O)C(=O)N[C@@H](CCCNC(=N)N)C(=O)N[C@@H](CCCCN)C(=O)N[C@@H](CCC(=O)O)C(=O)N[C@@H](CO)C(=O)N[C@@H](CCCCN)C(=O)N[C@@H](CCCCN)C(=O)N1CCC[C@H]1C(=O)N1CCC[C@H]1C(=O)N[C@@H](C)C(=O)N[C@@H](CCCCN)C(=O)N[C@@H](CC(C)C)C(=O)N[C@@H](CCC(N)=O)C(=O)N1CCC[C@H]1C(=O)N[C@@H](CCCNC(=N)N)C(=O)O)C(C)C | manual cuff, item: sBP | human, chronic HFrEF patients | intravenous infusion, 0.1 µg/kg/min over 120 min, follow-up day 2-5, median |  | blood pressure | 105 mm Hg
O=C(Nc1cnccc1-c1ccc([18F])cc1)c1ccnc(NC(=O)C2CC2)c1 | ex vivo gamma counting | GSK-3β transgenic mice, early-stage, cortex | intravenous, 120 min, mean, no P-gp inhibitor |  | SUV | 0.03
C=C(NC(=O)c1csc(-c2nc3c(cc2O)-c2nc(cs2)C(=O)NC(C(C)O)C(=O)NC(=C(C)OC)c2nc(cs2)C(=O)NC2c4nc(cs4)C(=O)NC(COC(=O)c4c5c6c(cccc6n4O)COC(=O)C(OC4CC(C)(O)C(N(C)C)C(C)O4)C2OC5)c2nc-3cs2)n1)C(N)=O (stereo not drawn) |  | cynomolgus monkey, plasma | intravenous, 3 mg/kg, single dose, infusion |  | Tmax | 30.6 min
O=C([O-])CN1CCN(CC(=O)[O-])CCN(C(CO)C(O)CO)CCN(CC(=O)[O-])CC1.[Dy+3] (stereo not drawn) |  | cynomolgus monkey, muscle | dose not given, day 5 |  | lanthanide tissue concentration | 0.079 ± 0.011 nmol/g
Cc1n[nH]c(C)c1CCCOc1cc(C(=O)NCCCCC(NC(=O)CN2CCN(CC(=O)[O-])CCN(CC(=O)[O-])CCN(CC(=O)[O-])CC2)C(=O)NCC2CCC(C(=O)NC(Cc3ccc4ccccc4c3)C(=O)NCCCCC(NC(=O)NC(CCC(=O)O)C(=O)O)C(=O)O)CC2)ccc1F.[177Lu+3] (stereo not drawn) | radio-HPLC | saline | 8 days, room temperature |  | radiochemical purity | 87.26 ± 0.87%
Cc1cc(C(=O)NC(C)(C)CO)cc(C)n1 | LC-MS metabolite profiling | Sprague-Dawley rat, both sexes, plasma | oral, 100 mg/kg of parent drug, 24 (unit not given) | higher = more metabolite | plasma peak area | 15300 a.u.
CN(Cc1cc(C2CC2)on1)C(=O)c1cccc(-c2ccc(F)cc2)c1 |  | male ICR/CD-1 mouse, liver microsomes | 2 µM, 120 min, pH 7.5, without ABT |  | remaining compound | 15.1%
N#C[C@@H]1CC(F)(F)CN1C(=O)CNC(=O)c1ccnc2c(NC(=O)C(N)CCCCNC(=O)CCOCCOCCOCCOCCOCCOCCNC(=O)CN3CCN(CC(=O)[O-])CCN(CC(=O)[O-])CCN(CC(=O)[O-])CC3)cccc12.[68Ga+3] (stereo partly drawn) |  | PBS | 30 min, 37 °C, 68Ga-labelled |  | radiochemical stability | 99.31 ± 0.4%
COc1ccc(/C=C/c2nc3c(Nc4ccc(Cl)cc4)ncnc3[nH]2)cc1OC | HPLC | solution, dark | before light exposure |  | purity | 99.7%
COc1cc(-c2nc3ccccc3s2)cc(CN2CCN(C)CCN(Cc3cc(-c4nc5ccccc5s4)cc(OC)c3O)CC2)c1O | UV-vis spectrophotometric titration | aqueous NaCl 0.1 M | 20 µM, 25 °C, pH 3 to 11 |  | pKa3 | 8.19
O=C(Nc1cnccc1-c1ccc([18F])nc1)c1ccnc(NC(=O)C2CC2)c1 |  | FVB/NJ mouse, both sexes, brain | intravenous, 15 min |  | SUV | 0.091
C=CC(=O)Nc1cc(Nc2nccc(-c3c[nH]c4ccccc34)n2)c(OC)cc1N(C)CCN(C)C | storage stability | human plasma | 72 h, -80 °C, LLOQ level |  | recovery | 95.6%
C/C(N)=N/C(=N\S(=O)(=O)c1ccc(C(F)(F)F)cc1)N1C[C@H](c2ccccc2)C(c2ccc(Cl)cc2)=N1 |  | male C57BL/6 mouse, kidney | intravenous, 10 mg/kg |  | Cmax | 16000 ng/mL
CCn1nc(Cl)c2c1-c1cnc(N)c(c1)O[C@H](C)c1cc(F)ccc1-c1nn(C)cc1C2 |  | Balb/c nude mouse, female, plasma | 0.2 mg/kg, single dose, 12 h |  | free plasma concentration | 0.63 nM
CC(=O)N([O-])CCCCCNC(=O)CCC(=O)N([O-])CCCCCNC(=O)CCC(=O)N([O-])CCCCCN.[89Zr+4] | radio-TLC | aqueous buffer | 7 d, pH 7, 37 °C, 89Zr-labelled complex, together with: DTPA 100-fold excess |  | intact complex | 93.3 ± 2.7%
O=C1c2sc(-c3ccc(N4CCC(F)C4)nc3F)nc2CCN1c1cccnc1 (stereo not drawn) |  | CD1 mouse, brain | i.v., dose not given, 1 h |  | concentration | 31.8 ng/g and 39.6 ng/g and 25.2 ng/g
CCC1CNC(CC)CN(C(C(=O)[O-])c2ccc(C(=O)[O-])cc2)C(CC)CN(CC(=O)[O-])C(CC)CN1.[Mn+2] (stereo not drawn) | ICP-MS | BALB/c mice, kidney | intravenous, 0.05 mmol/kg, 1440 min | baseline: injected dose | Mn uptake | 1.4 ± 0.06%

SMILES | assay | system | conditions | scale | measurement | result
OCC1OC(n2cnc3c(NCc4ccc(Br)s4)ncnc32)C(O)C1O (stereo not drawn) | equilibrium dialysis | dog plasma | 0.5 µg/mL, 4 h, pH 7.4 |  | fraction unbound | 0.137
CCC1C=C(C)C(O)C(C)CC(OC)C2OC(O)(C(=O)C(=O)N3CCCCC3C(=O)OC(C(C)=CC3CCC(O)C(OC)C3)C(C)C(O)CC1=O)C(C)CC2OC (stereo not drawn) |  | mouse C57BL/6, ear skin | topical, 10 µL of 37.1 mM, 24 h, 3% propylene glycol |  | concentration | 22800 ng/g
CNc1cc(N)c(C(N)=O)c[n+]1C | substrate, item: methylated product | rats, plasma | oral, 30 mg/kg, 1.00 h |  | plasma concentration of product | 199 nM and 191 nM
O=S(=O)(N[C@H]1CCO[C@@H](C2c3ccccc3CCc3ccccc32)C1)c1ccc(OC(F)(F)F)cc1 |  | mouse, brain homogenate | oral, 30 mg/kg, 2 h |  | brain concentration | 1160 ng/g
CC[C@H](C)[C@H](NC(=O)[C@H](Cc1ccc(O)cc1)NC(=O)[C@@H](NC(=O)[C@H](CCCNC(=N)N)NC(=O)[C@@H](N)CC(=O)O)C(C)C)C(=O)N[C@@H](Cc1c[nH]cn1)C(=O)N1CCC[C@H]1C(=O)O | LC-MS/MS | Sprague-Dawley rat, both sexes, plasma | subcutaneous, 10 mg/kg/day, day 0, 0.75 h, 45 min |  | plasma concentration | 9.05 ng/mL
Cc1nc(N)nc2c1C(=O)N[C@@H](c1ccc(F)cc1-c1cccc(O[11CH3])n1)C2 | ex vivo biodistribution | mice, U87 subcutaneous xenograft, spleen | 60 min post-injection, baseline, vehicle pre-treatment |  | tracer uptake | 2.6 ± 1 %ID
CCCCCCCC(=O)[O][Pt]([Cl])([Cl])[O]C(=O)CCCCCCC.N.N | ICP-MS, item: platinum | nude mice, blood | intravenous, equimolar single dose |  | clearance | 3.47e-06 mg/(ng/mL)/h
CCc1cnc(NC(=O)c2cc(S(=O)(=O)N3CCOCC3)ccc2N(C)C2CCCC2)s1 |  | mouse | 10 mg/kg, 3 doses |  | serum alkaline phosphatase | 72 IU/L
COc1cccc(OC)c1-c1cc(C(=O)NC2(C(=O)O)C3CC4CC(C3)CC2C4)nn1-c1ccc(C(=O)N(C)CCCN(C)CCCN(C)C(=O)[C@H](CCCCNC(=O)[C@H](CC(C)C)NC(=O)C2OC2C(=O)O)NC(=O)CN2CCN(CC(=O)[O-])CCN(CC(=O)[O-])CCN(CC(=O)[O-])CC2)cc1C(C)C.[177Lu+3] (mixture of isomers) |  | mouse HT-29 xenograft | 4 h, biodistribution | baseline: tumour over stomach | tumour-to-stomach ratio | 12.7
O=C1c2sc(-c3ccc(N4CCC(CO)CC4)nc3F)nc2CCN1c1cccnc1 |  | CD1 mouse, brain | i.v., dose not given, 0.25 h |  | concentration | 58.7 ng/g and 40.3 ng/g and 51.5 ng/g
CCCCN1C(=O)c2cccc3c(NCCCCCN4CCOCC4)ccc(c23)C1=O |  | water | pH 6.0 |  | Stokes shift | 101 nm
N#C[C@@H]1CC(F)(F)CN1C(=O)CNC(=O)c1ccnc2c(NC(=O)[C@H](CCCCNC(=O)CCOCCOCCOCCOCCOCCOCCNC(=O)CN3CCN(CC(=O)[O-])CCN(CC(=O)[O-])CCN(CC(=O)[O-])CC3)NC(=O)CCCc3ccc(I)cc3)cccc12.[177Lu+3] |  | PBS | 4 h, 37 °C, 177Lu-labelled |  | radiochemical stability | 98.5 ± 0.5%
CCCCN1C(=O)c2cccc3c(NCCCCCCN4CCOCC4)ccc(c23)C1=O |  | toluene |  |  | Stokes shift | 76 nm
C=CS(=O)(=O)Oc1ccc(OC)c(-c2c[nH]c3ncc(-c4cncc(C(=O)N(C)C)c4)cc23)c1 | HPLC | acetonitrile/water/DMSO | 50 µM, 37 °C, DIPEA 20 eq, together with: N-α-acetyl-lysine |  | reactivity half-life | ~15 min
CCCCCCCCCCCCCCCC(=O)N[C@@H](CCCCN)C(=O)N[C@@H](CCCCN)C(=O)N[C@@H](CO)C(=O)N[C@@H](CCCNC(=N)N)C(=O)N[C@@H](C)C(=O)N[C@@H](CC(C)C)C(=O)N[C@@H](Cc1ccccc1)C(N)=O |  | human patients, plasma | intravenous, 0.3 mg/kg over 2 h |  | terminal half-life | 72 min
O=C(O)CCCOc1ccc([18F])cc1-c1cc(-c2ccccc2C(F)(F)F)n(-c2ccccc2)n1 |  | formulated product | 3 h after synthesis end, room temperature |  | radiochemical purity | 99.3 ± 0.4%
CCCCN1C(=O)c2cccc3c(NCCCN4CCOCC4)ccc(c23)C1=O |  | acetonitrile |  |  | Stokes shift | 86 nm
[11CH3]N1CCC(NC(=O)c2cc(-c3c(O)cc(O)cc3Oc3ccc([N+](=O)[O-])cc3)on2)CC1 |  | healthy female Wistar rats, blood | intravenous, 10 min |  | standardized uptake value | 1.4 ± 0.2 g/mL
C[C@H](C(=O)O)n1nc(Cn2cc3cc(OCC[18F])c(Cl)cc3n2)c2ccccc2c1=O | PET | C57BL/6 mouse male | 40 min |  | brain uptake | 0.35 %ID/g
C[N+](C)(CCOCCOCCOCCOCCOCCOCCOCCNC(=S)Nc1ccc(CC2CN(CC(=O)[O-])CCN(CC(=O)[O-])CCN2CC(=O)[O-])cc1)C[c-]1cccc1.[64Cu+2].[Fe+2].c1cc[cH-]c1 (stereo not drawn) |  | healthy nude mice, blood | intravenous, dose not given |  | weighted blood half-life | 6.7 min
CN1CCCNC(=O)c2cccc(c2)C(=O)NCCCN(C)CCCNc2cccc3c2C(=O)c2cccc(c2C3=O)NCCC1 | histopathology | tumour-free KSN/Slc nude mice, liver and kidney | dose not given, 10 days |  | lesion area | 2.14e+07 µm2
CNc1cc(C)c(C(N)=O)cn1 |  | Han Wistar rats, male, plasma | oral, 30 mg/kg, 1.50 h |  | plasma concentration | 109000 nM

Some of these lines once more:
SMILES | assay | system | conditions | scale | measurement | result
[11CH3]N1CCC(NC(=O)c2cc(-c3c(O)cc(O)cc3Oc3ccc([N+](=O)[O-])cc3)on2)CC1 |  | healthy female Wistar rats, blood | intravenous, 10 min |  | standardized uptake value | 1.4 ± 0.2 g/mL
CC(C)Cc1ccc(C(C)C(=O)NC(CCCCNC(=O)CCOCCOCCOCCOCCOCCOCCNC(=O)CN2CCN(CC(=O)[O-])CCN(CC(=O)[O-])CCN(CC(=O)[O-])CC2)C(=O)Nc2cccc3c(C(=O)NCC(=O)N4CC(F)(F)C[C@H]4C#N)ccnc23)cc1.[68Ga+3] (stereo partly drawn) |  | PBS | 120 min, 37 °C, 68Ga-labelled |  | radiochemical stability | 99.5 ± 1%
C[C@H](C(=O)O)n1nc(Cn2cc3cc(OCC[18F])c(Cl)cc3n2)c2ccccc2c1=O | PET | C57BL/6 mouse male | 40 min |  | brain uptake | 0.35 %ID/g
CCCCN1C(=O)c2cccc3c(NCCCN4CCOCC4)ccc(c23)C1=O |  | acetonitrile |  |  | Stokes shift | 86 nm
